# Measurements pooled from the literature.
# Target: Serine/threonine-protein kinase 32B (STK32B, Homo sapiens, UniProt Q9NY57)
SMILES,test,test system,setting,how to read,endpoint,result
NC(=O)[C@@H](O)C[C@H]1CCc2sc3ncnc(O[C@H]4CC[C@H](N5CCOCC5)CC4)c3c21,"enzyme activity, inhibitor",,10 µM,,inhibition,-1%
CN1CC[C@@H](COc2cnc(C#N)cc2-c2ccn3nc(NC(=O)C4CC4)cc3c2)C1,"enzyme activity, inhibitor",,1 µM,,inhibition,2%
CCN1CCN(Cc2ccc(C(=O)Nc3ccc(C)c(NCc4cnc5[nH]ccc5c4OC)c3)cc2C(F)(F)F)CC1,"binding, competition with immobilised ligand",,1 µM,,remaining binding,82%
COc1cc(Nc2nccc(-c3cnn4nc(OC)ccc34)n2)cc(C(F)(F)F)c1,"binding, competition with immobilised ligand",,1 µM,,remaining binding,100%
Cc1ccc(C(=O)Nc2ccc(CN3CCN(C)CC3)c(C(F)(F)F)c2)cc1C#Cc1cnc2cccnn12,"target engagement, NanoBRET",human cells,,,Hill slope,0.598
Cc1ccc(-c2c(/C=C(\C#N)C(=O)NC(C)C)n(CCCO)c3ncnc(N)c23)cc1,"cell-free assay, competition with immobilised ligand",,1 µM,,remaining binding,87%
CCN1CCN(Cc2ccc(NC(=O)c3ccc(C)c(NC(=O)c4cncc(-c5cnn(C)c5)c4)c3)cc2C(F)(F)F)CC1,"binding, competition with immobilised ligand",,1 µM,,remaining binding,81%
COc1c(Cl)cccc1Nc1c(-c2ccncc2C#C[C@@]2(C)CCCN2C(=O)/C=C/CN(C)C)[nH]c2c1C(=O)NCC2,"cell-free assay, competition with immobilised ligand",,3 µM,,remaining binding,28%
CC(C)=CC1OC(C)(C)C2C=C3C(=O)C(Cl)=CC(O)C3C3C(O)C4OC4C(=O)C132 (stereo not drawn),"cell-free assay, competition with immobilised ligand",,10 µM,,remaining binding,91%
Cc1cnc2nc1Nc1cccc(c1)COC/C=C/COCc1cc(ccc1OCCN1CCOCC1)N2,"binding, competition with immobilised ligand",,0.1 µM,,remaining binding,100%
NC(=O)C[C@H]1CCc2sc3ncnc(O[C@H]4CC[C@H](N5CCOCC5)CC4)c3c21,"enzyme activity, inhibitor",,10 µM,,inhibition,1%
CN1CCN(Cc2ccc(-c3ccc(CO[C@H]4CCC[C@@H]4NC(=O)c4cc(-c5cnn(C)c5)cnc4N)cc3)cc2)CC1,"enzyme activity, inhibitor",,0.1 µM,,inhibition,7%
C=CC(=O)N1CCCC(n2c(=O)c3ncccc3n(Cc3ccc(Oc4ccccc4)cc3)c2=O)C1 (stereo not drawn),"cell-free assay, competition with immobilised ligand",,1 µM,,remaining binding,84%
CNC(=O)C[C@H](Cc1ccc(C#N)cc1)NC(=O)c1cc(-c2ccc(CN[C@H](C)c3ccc(C)cc3)o2)ccc1Cl,"enzyme activity, inhibitor",,1 µM,,activity vs control,111%
CNC1C[S+]2CC[S+]3CC[S+](C1)[Ru-4]321([N]=C=S)[n]2c3ccc(OC)cc3c3c4c(c5cc(F)c[n+]1c5c32)C(=O)NC4=O (stereo not drawn),KinomeScan,,0.1 µM,relative to: untreated,remaining binding,89%
C=CC(=O)N1CCc2ccc(-n3c(=O)ccc4cnc5ccc(-c6cnn(C)c6)cc5c43)cc21,KINOMEscan,,1 µM,relative to: DMSO control,remaining binding,100%
COc1cc(Nc2nc(C)cc(-c3cnn4nc(OC)ccc34)n2)cc(C(F)(F)F)c1,"binding, competition with immobilised ligand",,1 µM,,remaining binding,100%
Nc1ncc(-c2cc(-c3cnn(CC(F)(F)F)c3)ncc2F)nc1C(=O)NC1CNCC(F)C1 (stereo not drawn),enzyme activity,,1 µM,relative to: DMSO control,remaining activity,90.3%
O=C(Cc1ccc(OCc2ccccc2)cc1)NC1(C(=O)O)CCN(C(=O)c2ccc(-c3cccc(Cl)c3)cc2)CC1,"enzyme activity, inhibitor",,10 µM,,activity vs control,95%
C=CC(=O)N1Cc2nc(-c3cc(-c4cc(Cl)cnc4Cl)c(F)cc3F)n(-c3ccncn3)c2C1,cell-free assay,,1 µM,,inhibition,7.3%
CNC(=O)C1CCN(c2cc(C)c(F)cc2NC(=O)c2ccc(-c3cc(O)ccc3C)c(C)c2)CC1,"binding, competition with immobilised ligand",,1 µM,,remaining binding,87%

# Excerpt of the above:
SMILES,test,test system,setting,how to read,endpoint,result
Cc1ccc(C(=O)Nc2ccc(CN3CCN(C)CC3)c(C(F)(F)F)c2)cc1C#Cc1cnc2cccnn12,"target engagement, NanoBRET",human cells,,,Hill slope,0.598
Cc1ccc(-c2c(/C=C(\C#N)C(=O)NC(C)C)n(CCCO)c3ncnc(N)c23)cc1,"cell-free assay, competition with immobilised ligand",,1 µM,,remaining binding,87%
CCN1CCN(Cc2ccc(NC(=O)c3ccc(C)c(NC(=O)c4cncc(-c5cnn(C)c5)c4)c3)cc2C(F)(F)F)CC1,"binding, competition with immobilised ligand",,1 µM,,remaining binding,81%
